Measurements of several laboratories.
Numbered parts are unrelated; each lists some results of a single study.

Sample 1
Target: TAR DNA-binding protein 43, full length, His tag (TARDBP, Homo sapiens, UniProt Q13148, residues 1-414)
Technique: RNA Bind-n-Seq
Form: RNA
Matrix: in vitro
Tested at: 20 nM
Notes: 6-mer, flanks averaged, single round
With: 150 mM LiCl
Reference: input library
Direction: higher = stronger binding
`UCGUAG` — result for “6-mer enrichment (R)”: 0.898.
Under “6-mer enrichment (R)”, `CCAGCG` is recorded as 0.966.
`GAUAGU`: “6-mer enrichment (R)” 0.96.
Under “6-mer enrichment (R)”, `AAAACC` is recorded as 0.836.
For `CACUCA`, “6-mer enrichment (R)” read 0.858.
For `UGAGUG`, “6-mer enrichment (R)” read 1.68.
For `UGCCAC`, “6-mer enrichment (R)” read 0.944.
Under “6-mer enrichment (R)”, `UGUACC` is recorded as 0.955.
For `CAGUCC`, “6-mer enrichment (R)” read 0.862.
`GCGGUG`: “6-mer enrichment (R)” 1.26.
`ACGGCC` — result for “6-mer enrichment (R)”: 0.879.
For `AUCGGG`, “6-mer enrichment (R)” read 0.953.
`GGUAAU`: “6-mer enrichment (R)” 0.99.
`UUUUUG` — result for “6-mer enrichment (R)”: 1.59.
`UCUGCC` — result for “6-mer enrichment (R)”: 0.934.
For `GCUCGU`, “6-mer enrichment (R)” read 0.876.
For `GUAAAC`, “6-mer enrichment (R)” read 0.857.
Under “6-mer enrichment (R)”, `GUUCAA` is recorded as 0.888.
`UAUUGA`: “6-mer enrichment (R)” 0.963.
Under “6-mer enrichment (R)”, `GCAGGC` is recorded as 0.992.
`UUUCCA` — result for “6-mer enrichment (R)”: 0.955.
`GCUUGU`: “6-mer enrichment (R)” 1.12.
For `GUCCUU`, “6-mer enrichment (R)” read 1.03.
Under “6-mer enrichment (R)”, `UUCUGC` is recorded as 0.942.
Under “6-mer enrichment (R)”, `UCCCAG` is recorded as 0.932.

Sample 2
Target: RNA binding protein fox-1 homolog 2, RRM domain, GST-SBP tag (RBFOX2, Homo sapiens, UniProt O43251-10, residues 100-194)
Technique: RNA Bind-n-Seq
Form: RNA
Matrix: in vitro
Tested at: 365 nM
Notes: natural RNA segment, single round, ends assumed
Reference: no-protein control
Direction: higher = stronger binding
Constant ends, left off below: GGGAGUUCUACAGUCCGACGAUC … UGGAAUUCUCGGGUGCCAA
Construct (chain): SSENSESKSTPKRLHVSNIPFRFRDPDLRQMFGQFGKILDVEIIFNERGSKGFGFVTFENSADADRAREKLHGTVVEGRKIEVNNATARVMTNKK
`GUGAGUACAUGCCCCAGAGAUGGUGGCCAAGCAGAGCAGUCACCCACAAGGCAGAGUUACUCGUGAGAAAGGGCAGCAGUGUUGUGUGCAUCUGUCAGUCAGGUUGUAUG`: “RBNS enrichment (R)” 0.598.
For `GGGGAGGCCAGUGUUGUGGGCUUCCUGCUGGGACUGAGAAGGCUCACGAAGGGCAUCCGCAAUGUUGGUUUCACUGAGAGCUGCCUCCUGGUCUCUUCACCACUGUAGUU`, “RBNS enrichment (R)” read 0.41.
For `CUGGCAAGGGCAGCCUAGACACCAUGCUGGGGCUGCUGCAGUCCGACCUCAGCCGCCGGGGUGUUCCCACCCAGGCCAAAGGCCUCUGUGGCUCCUGCAAUAAACCUAUU`, “RBNS enrichment (R)” read 0.222.
`ACACAUUUUAGGGAUAAGUAAUCAAAACCAUGAACUUUUAUUUGACUUCCCACCAAUGUCUAAACUAUUGUAAAAUAGUAUGAUUCUUUAGCCGUGUUUUGACUGUCUAG` — result for “RBNS enrichment (R)”: 0.269.
`UGCAAGAUUUUGCGUUUAUUCAGGCAAAAACUGGUCAAAAUGGUUACUACAUGAUUUGUUCCCAGAGGUUUGAAACAUUCAGUGAAACUUUUUAAAACUUUGAUUGCAUG`: “RBNS enrichment (R)” 0.888.
`GAGAAAAUUAGCUAUGGGAAGAUAUUAAAAGAUUUCUUAGAUGGAUGUGGUUAAAAUUUUUGUAAUAUAUUUAAAUGUAUAUUUUUGAGAGAGAUACUACAUUGCCAAGG`: “RBNS enrichment (R)” 2.35.
Under “RBNS enrichment (R)”, `AGAUCCAAAGGGAAAUUCUAGAGAUCUCUUAGUAAUGUAGUAAGGCAGGCCUUCUUCUUCCGGAGUUGGUGAUUCUAACUUUAGAAGUUCCAGGUUGUGGGCUAUGGUAU` is recorded as 0.467.
`CAUAAAGAUGUCUGCAGCUAUUUCCUACCCAGAUGUUCCUGAUGUGAUAAGCAGGGGACUUUUUUUUUUUUUCCUUCAGAUGCUAUCCAUAAAAUCCAAGCCCUUUCUUA` — result for “RBNS enrichment (R)”: 0.833.
For `UCCCUCUGAGAGUUGUGAGGAUGUGUAACAAGUAUUUUCUUCUAUCGUGCCUGCCAGGGCUGAAGCUGCCUGGUAUCCAGGAGGGGAAUGCUGGUAUCCCCAUAUGUCUG`, “RBNS enrichment (R)” read 1.87.
`CCUCCUCCCCCAACGCAUCCCAGCCAGUGCCAUGUCCUCUGCAGGUGGAGUUACUGGCCUACUCCUUCCCCAUGAGCCCUCCCUGUCUGCACUGCCCAGGCCAGAGGGUA` — result for “RBNS enrichment (R)”: 1.67.
`UUACACGUCCCCUGGGUGGACCUCCCUGCUGCAGGCACCAUACCUGCGAUGGUGUACAGGGCUGUGAUGCCGAGCGUGAGGAUGGUGGAGAGGUAGAAGUUCCAGCCCAG` — result for “RBNS enrichment (R)”: 0.865.
`UACCUAAAUUUUCUUAAAAAAAAAUCUAGUAUAGCACUACAUUCUUUUUUAAGUGAUGCAGACCUUAGUUUCUUUAGCCCCUUUAUUUUGAAUACAAUGCUACAUAUGAA`: “RBNS enrichment (R)” 0.835.

Sample 3
Target: Sal-like protein 4, full length isoform A (SALL4, Homo sapiens, UniProt Q9UJQ4, residues 1-1053)
Chain of UniProt Q9UJQ4 (whole entry, looked up): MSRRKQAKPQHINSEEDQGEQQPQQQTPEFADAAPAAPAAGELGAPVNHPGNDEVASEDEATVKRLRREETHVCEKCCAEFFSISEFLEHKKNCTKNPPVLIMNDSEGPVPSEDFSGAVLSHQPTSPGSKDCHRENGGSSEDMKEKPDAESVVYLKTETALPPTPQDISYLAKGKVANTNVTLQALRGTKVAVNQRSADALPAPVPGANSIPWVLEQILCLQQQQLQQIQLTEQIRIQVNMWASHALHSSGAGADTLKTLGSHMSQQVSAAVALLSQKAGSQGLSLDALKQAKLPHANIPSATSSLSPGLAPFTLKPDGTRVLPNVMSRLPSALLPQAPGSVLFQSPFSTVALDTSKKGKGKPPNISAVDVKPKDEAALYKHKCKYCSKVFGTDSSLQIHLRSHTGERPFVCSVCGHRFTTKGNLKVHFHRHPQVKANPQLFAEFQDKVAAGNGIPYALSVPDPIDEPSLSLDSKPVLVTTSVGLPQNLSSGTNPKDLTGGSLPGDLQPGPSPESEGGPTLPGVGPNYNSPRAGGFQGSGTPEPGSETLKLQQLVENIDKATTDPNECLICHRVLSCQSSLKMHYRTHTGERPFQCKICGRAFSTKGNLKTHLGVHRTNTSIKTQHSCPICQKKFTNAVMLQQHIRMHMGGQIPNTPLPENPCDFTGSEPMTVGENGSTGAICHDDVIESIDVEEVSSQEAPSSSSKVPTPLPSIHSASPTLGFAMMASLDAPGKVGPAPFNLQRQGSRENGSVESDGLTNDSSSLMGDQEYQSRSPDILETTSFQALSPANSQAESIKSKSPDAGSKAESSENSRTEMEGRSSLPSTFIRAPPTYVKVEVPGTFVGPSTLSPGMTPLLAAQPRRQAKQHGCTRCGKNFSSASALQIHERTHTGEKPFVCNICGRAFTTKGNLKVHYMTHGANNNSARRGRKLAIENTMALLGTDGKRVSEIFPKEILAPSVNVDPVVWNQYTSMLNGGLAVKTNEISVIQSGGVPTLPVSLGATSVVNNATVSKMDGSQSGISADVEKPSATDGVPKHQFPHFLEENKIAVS
Technique: universal PBM
Form: double-stranded DNA, one strand shown
Matrix: in vitro
Tested at: 600 nM
Notes: 8-mer, flanks averaged, mean of replicates
Direction: higher = stronger binding
For `ACTATAAA`, the E-score was 0.326.
For `ACCACTAT`, the E-score was 0.141.
`CTTTAAGA` gave an E-score of 0.104.
With `CTATCTTA` the E-score was 0.118.
For `AACTGTGC`, the E-score was -0.115.
`CGCAGTTA` gave an E-score of 0.0878.
The E-score of `AACGGGAG` is reported as -0.00571.
`TAAAGCGA` gave an E-score of 0.114.
For `ACACGCTA`, the E-score was -0.0114.
`AAATCTAC` has an E-score of 0.234.
`ATAGTCGG` gave an E-score of -0.295.
`CACTGGAA` gave an E-score of -0.0423.
For `TGAGCTAA`, the E-score was 0.114.
`CAAACACA` has an E-score of 0.142.
With `CTACCAGC` the E-score was -0.171.
For `AAATTGGA`, the E-score was 0.315.
`AATTTCTA` gave an E-score of 0.304.
For `AATACGTA`, the E-score was 0.254.
With `GCCCTTGA` the E-score was -0.147.
`GTCAAAAA` has an E-score of 0.245.
The E-score of `GGTCCCTA` is reported as -0.183.
`AAGCGTTC` gave an E-score of -0.0965.
With `GCCCGTTA` the E-score was -0.18.
With `CCGGCGGC` the E-score was -0.333.
The E-score of `ATAATCTA` is reported as 0.372.

Sample 4
Target: Interferon regulatory factor 5, full length, phosphomimetic (IRF5, Homo sapiens, UniProt Q13568-2, residues 1-514, K96S/S451D/S453D/S456D/S462D)
Technique: protein-binding microarray
Form: double-stranded DNA, one strand shown
Matrix: in vitro
Tested at: 250 nM
Notes: 60-bp whole probe
With: salmon DNA 0.4 mg/ml
Reference: random background probes
Direction: higher = stronger binding
Constant ends, left off below: GCCTAGCAC … GTCTTGATTCGCTTGACGCTGCTG
`TTAGGTATCGGTCTCGGTTAGTGCTAG` has a log fluorescence of 6.96 z-score.
`TTAGCTATCAGTATCGATTAGTGCTAG` gave a log fluorescence of 8.22 z-score.
`TACGGTTTCCTTTTCCTGACGTGCTAG` gave a log fluorescence of 1.21 z-score.
The log fluorescence of `GACGATCTCACACTGGAGACGTGCTAG` is reported as -0.119 z-score.
With `TCACTTCACCTCTCTGTCACTGTGCTA` the log fluorescence was 0.622 z-score.
With `TTAGATTTCGGTTTTCGATTAGTGCTA` the log fluorescence was 9.12 z-score.
For `TTAGTTATCGACTTTCGGTTAGTGCTA`, the log fluorescence was 10.4 z-score.
`GCACTTTGGGAGGCCGAGGCGTGCTAG` gave a log fluorescence of -0.403 z-score.
`TTCTACTTCTCTTTTGGCTTGTGCTAG` has a log fluorescence of 1.27 z-score.
With `CTCTTTGTTTCACTTCCTGGTGTGCTA` the log fluorescence was 4.11 z-score.
With `GGCCCTTTGCTTTCCTGATGGTGCTAG` the log fluorescence was -0.17 z-score.
With `CATTCTCTGTTTATGTCTGGGTGCTAG` the log fluorescence was 1.27 z-score.
For `GACGATTTCGGCACTGGAGACGTGCTA`, the log fluorescence was 2.03 z-score.
`GACGATTTCGGATTTCGAGACGTGCTA` gave a log fluorescence of 2.96 z-score.
`GACGGTATCGGGTTTCGGGAAGTGCTA` gave a log fluorescence of 5.28 z-score.
`AGGACCATCTCATATAAATAGGTGCTA` has a log fluorescence of -0.391 z-score.
The log fluorescence of `GAAGGACTGGACTATCGGGACGTGCTA` is reported as 0.936 z-score.
`GACGGTATCGGTATCAGGACGTGCTAG` gave a log fluorescence of 5.84 z-score.
`ATTGTTTTCAGTTTCACTGCGTGCTAG` gave a log fluorescence of 7.47 z-score.
For `TACGAACTGAGTATCGAGACGTGCTAG`, the log fluorescence was 1.91 z-score.
The log fluorescence of `TTAGATCTCTGTATCGATTAGTGCTAG` is reported as 4.12 z-score.
With `GACGGTTTCCTTTTCCTGCCGTGCTAG` the log fluorescence was 1.29 z-score.
With `GACGGTTCCAGTTTCGGGACGTGCTAG` the log fluorescence was 5.74 z-score.
For `TCAGATTCCAGTTTCGATTAGTGCTAG`, the log fluorescence was 9.46 z-score.
`TCATGAATGTGTCTTAAACTGTGCTAG` gave a log fluorescence of 0.166 z-score.

Sample 5
Target: Histone acetyltransferase KAT6A, winged helix 2, GST fusion (KAT6A, Homo sapiens, UniProt Q92794, residues 85-181)
Technique: protein binding microarray
Form: double-stranded DNA, one strand shown
Matrix: in vitro
Tested at: not given
Notes: 8-mer, flanks averaged, mean of 2 arrays, mostly near background
Reference: not given
Direction: higher = stronger binding
Residues (chain): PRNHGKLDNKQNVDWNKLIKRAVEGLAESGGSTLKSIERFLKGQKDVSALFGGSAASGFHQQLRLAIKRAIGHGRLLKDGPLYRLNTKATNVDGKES
For `CCGGGGAG`, the E-score was 0.133.
For `TCCGCTAA`, the E-score was 0.102.
`ATAATTAA` gave an E-score of 0.259.
`TAAGTAGA` has an E-score of -0.0378.
For `ATGTCTTC`, the E-score was -0.0158.
The E-score of `TCCCGTAA` is reported as 0.0118.
For `AGAGCTGA`, the E-score was 0.00903.
`ATCCCCTA` has an E-score of -0.157.
The E-score of `AGGCTGTC` is reported as -0.204.
`CGATTTCC` gave an E-score of 0.0861.
With `CGCATGAC` the E-score was -0.0221.
For `CATGCTCG`, the E-score was 0.0925.
The E-score of `CTCAGGCC` is reported as -0.0394.
For `TATGTGCA`, the E-score was -0.191.
`GGACGCAC` gave an E-score of 0.0558.
`CAAACGAA` has an E-score of 0.0813.
The E-score of `CTTAGCCA` is reported as -0.039.
The E-score of `CTACATTC` is reported as -0.152.
For `AATACAAG`, the E-score was 0.0282.
`AGTAGTTC` gave an E-score of -0.00283.

Some of these lines once more (sample 1):
For `AUCGGG`, “6-mer enrichment (R)” read 0.953.
`GGUAAU`: “6-mer enrichment (R)” 0.99.
`UUUUUG` — result for “6-mer enrichment (R)”: 1.59.
`UCUGCC` — result for “6-mer enrichment (R)”: 0.934.
For `GCUCGU`, “6-mer enrichment (R)” read 0.876.
For `GUAAAC`, “6-mer enrichment (R)” read 0.857.
Under “6-mer enrichment (R)”, `GUUCAA` is recorded as 0.888.
`UAUUGA`: “6-mer enrichment (R)” 0.963.
Under “6-mer enrichment (R)”, `GCAGGC` is recorded as 0.992.
`UUUCCA` — result for “6-mer enrichment (R)”: 0.955.
`GCUUGU`: “6-mer enrichment (R)” 1.12.
For `GUCCUU`, “6-mer enrichment (R)” read 1.03.
Under “6-mer enrichment (R)”, `UUCUGC` is recorded as 0.942.
Under “6-mer enrichment (R)”, `UCCCAG` is recorded as 0.932.
